Results pooled from the literature.
Every numbered part comes from another study and shows a few of its results, in no order. Substitutions count along the parent as printed.

Sample 1 — target: CREB3L3, bZIP domain (human); technique: DHFR protein complementation; medium: yeast; baseline: wild-type JUN-FOS pair; direction: higher = stronger binding; endpoint: binding fitness
Notes: single substitutions, most at no-binding floor
Starting sequence: JUN, bZIP domain (human); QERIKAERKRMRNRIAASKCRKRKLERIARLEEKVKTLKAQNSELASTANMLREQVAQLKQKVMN; partner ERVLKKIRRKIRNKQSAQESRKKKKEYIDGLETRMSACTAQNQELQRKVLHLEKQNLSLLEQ
E54H: -1.42 natural log
L45F: -1.48 natural log
L31I: -1.36 natural log
E32R: -1.37 natural log
E33W: -1.52 natural log
A29N: -1.44 natural log
T48P: -1.53 natural log
E32F: -1.34 natural log
E32S: -1.51 natural log
L45E: -1.48 natural log
E33M: -1.57 natural log
A57M: -1.5 natural log
N42Y: -1.39 natural log
V56A: -1.51 natural log
A40E: -1.27 natural log
R30I: -1.53 natural log
A40M: -1.46 natural log
E33C: -1.48 natural log
N42P: -1.55 natural log
Q41V: -1.56 natural log

Sample 2 — target: CCNB3, cyclin fold, Cln2 fusion (human); technique: yeast growth competition, sequencing; medium: yeast; notes: weak parent motif; baseline: not given; direction: higher = stronger binding; endpoint: normalised enrichment score
Starting sequence: PKN2 docking peptide (human); VSAVQKLDFSDTM
VSAEQKLDFSDTM [V4E]: 0.326
VSATQKLDFSDTM [V4T]: -0.0893
VSRVQKLDFSDTM [A3R]: 0.118
VSAVQKLDFSDTY [M13Y]: 0.211
VSAVQKLDFADTM [S10A]: 0.0447
VSAVQKIDFSDTM [L7I]: -0.202
VSAVQKPDFSDTM [L7P]: -0.281
VSQVQKLDFSDTM [A3Q]: 0.457
VSAVQKLYFSDTM [D8Y]: 0.384
VSAVQKLIFSDTM [D8I]: 0.635
VSAVQKFDFSDTM [L7F]: 0.357
VSAVQKLDFSMTM [D11M]: 0.139
VSAVQKLDFSDYM [T12Y]: 1.02
VRAVQKLDFSDTM [S2R]: 0.321
VSAVQKLDRSDTM [F9R]: 0.414
VSAVQKLDVSDTM [F9V]: 0.0236
VSAVQKYDFSDTM [L7Y]: 0.0547

Sample 3 — technique: RNAcompete; molecule type: RNA; medium: in vitro; concentration: 20 nM; notes: 7-mer, probes averaged, single round; baseline: mean of 7-mers; direction: higher = stronger binding; endpoint: 7-mer Z-score
Target: PABPC1L2, full length, GST fusion (mouse, UniProt A0ABA7IW68)
Target sequence (chain): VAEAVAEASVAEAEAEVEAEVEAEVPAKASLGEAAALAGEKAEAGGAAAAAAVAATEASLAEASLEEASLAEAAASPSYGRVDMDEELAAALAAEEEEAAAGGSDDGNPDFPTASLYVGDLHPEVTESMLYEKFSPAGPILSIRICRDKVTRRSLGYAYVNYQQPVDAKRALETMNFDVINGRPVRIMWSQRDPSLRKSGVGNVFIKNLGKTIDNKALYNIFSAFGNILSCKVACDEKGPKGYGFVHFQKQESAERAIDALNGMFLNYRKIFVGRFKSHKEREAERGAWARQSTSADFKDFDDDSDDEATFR
UGCGCGG: 0.0805
CAAGAAG: 0.0732
GGAUCAG: 0.231
CUUAAUU: -0.215
GAUGUCG: -0.28
GGCAACA: 0.309
AGUGACC: -0.0174
AUAAAAC: 3.74
UAUCCUG: -0.389
CUCCGGA: -0.159
GAUCCUC: -0.356
CGUCGUC: -0.454
CUGAAAA: 4.92
CUGUAGG: -0.132
AAAUAUC: 1.73
CCCAUAA: 0.0932
UUACUGA: -0.137
GCUUCCG: -0.287
GUCUCCA: -0.309
CUGCGGU: -0.137
CACCGGU: -0.0645
CAACCGA: -0.0971
UUUCCCU: -0.423

Sample 4 — technique: competition protein-binding microarray; molecule type: double-stranded DNA, one strand shown; medium: in vitro; concentration: 2 µM; with: Pho4 competitor, 0.05 µM; direction: higher = stronger binding; endpoint: fluorescence intensity; shared flanks, not repeated: … GTCTTGATTCGCTTGACGCTGCTG
Target: Centromere-binding protein 1, full length, His-tagged (CBF1, Saccharomyces cerevisiae, UniProt P17106, residues 1-351)
Chain of UniProt P17106 (whole entry, looked up): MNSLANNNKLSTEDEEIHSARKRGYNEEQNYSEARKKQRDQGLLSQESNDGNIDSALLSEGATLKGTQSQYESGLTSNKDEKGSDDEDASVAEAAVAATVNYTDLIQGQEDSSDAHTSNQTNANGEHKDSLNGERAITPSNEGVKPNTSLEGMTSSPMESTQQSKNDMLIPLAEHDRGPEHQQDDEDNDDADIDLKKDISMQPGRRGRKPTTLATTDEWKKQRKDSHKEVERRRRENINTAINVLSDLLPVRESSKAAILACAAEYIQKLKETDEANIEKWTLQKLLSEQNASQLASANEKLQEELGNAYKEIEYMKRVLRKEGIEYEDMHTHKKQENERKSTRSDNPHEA
Notes: whole 60-bp probe, lowest competitor level
ATATCCACAGTATATGGCGTGCAAAGATAAGGCTCG: 117 a.u.
AGAGCACTACAACAAGGCGTGGGTACTGCATAAAGA: 67.7 a.u.
CTAACGAAGGTTTGCTGAGTGGGTGACAAGCCAAGT: 62.2 a.u.
AATATGGCAGCCTCGCTGGTGTGCCACATAATATTA: 63.1 a.u.
GTCTTGTCTCATTGATGCGTGGGTGTCCCCACTTCA: 75.8 a.u.
CTATTCAAAAGGTTCCACGTTGGCTGTCTACTGACT: 67.8 a.u.
CGTCCTAGTGATTCACACGTGTTTTCCATGAGGAAG: 1070 a.u.
AAGACGCTGATTCACCACGTGAGACGAAGATTCAAA: 1270 a.u.
AACACTCGAGTTACTTCCGTGATGGTTTAATGGTCA: 85.5 a.u.
GCTTATATCAACCGTCACGGGACTCTATCCAAGACT: 873 a.u.
CAGGACTCCATCCATTACATGACAAGGGAAGCGCCC: 59.8 a.u.
TGCGCAACAACTTGTCACGGCACTTTATGTCTAGAA: 82.5 a.u.
ATTGCTGCTTGCAGCTGCGTGCAAATTTCCATAATC: 81.7 a.u.
TATCGGTGGGCATTGTACCTGATCTTGCTAGACAAA: 65.1 a.u.
ACCCCTTTTCAAAAGGTCGTGATTGTTTTCGTAAGA: 118 a.u.
GTCTTGTCTCATTGTGACGTGGGTGTCCCCACTTCA: 80.6 a.u.
CATACCCAACCTTGCGGAGTGGGTGAAGATATTTGT: 67.1 a.u.
CGCAGCCTCTACCGTCACGTGTAACAGTACGGCAGG: 3670 a.u.
AAATCGTCAGTAAAGTCAGAGTAATGATTTTTCACT: 80.4 a.u.
TGCGCAACAACTTGGTCTGTGGGTGTATGTCTAGAA: 57.5 a.u.
TCAAGCAGAAGAAAGCACGTGGCCGAACGCTTACCT: 1290 a.u.
GTAGCAAATGCACTGCATGTGTTTCTGTGGCGGGTA: 90.4 a.u.
CGTCCTAGTGATTTTCACGTGGGTTCCATGAGGAAG: 810 a.u.
CGTAGACTTTTACGTCAGCTGAGAAAGAATATTTGT: 313 a.u.
CGTCCTAGCGATTGAAGAGTGGGTGCCATGAGGAAG: 68.4 a.u.

Sample 5 — technique: DHFR PCA, deep sequencing; medium: yeast; with: (+)-ABA 0.0091 µM; baseline: wild-type fitted maximum; direction: higher = stronger binding; endpoint: relative binding score
Target: ABI1, truncated, D143A, DHFR fusion (Arabidopsis thaliana)
Notes: methotrexate growth selection, single substitutions
Starting sequence: PYL1, truncated, DHFR fusion (Arabidopsis thaliana); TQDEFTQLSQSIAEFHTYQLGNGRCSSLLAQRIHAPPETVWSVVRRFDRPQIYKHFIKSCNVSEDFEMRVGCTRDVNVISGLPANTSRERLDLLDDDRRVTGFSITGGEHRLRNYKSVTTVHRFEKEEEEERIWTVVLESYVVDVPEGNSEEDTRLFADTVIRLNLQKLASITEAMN
T173N: 6.29%
R163A: 14%
I52Q: 26.5%
L93W: -4.15%
Y115E: -1.04%
L91F: 3.23%
S117V: -3.42%
N149K: 7.58%
K168V: 1.23%
S42C: -1.52%
S80P: 5.07%
A175S: 28%
S9C: 13.3%
D48A: -0.867%
W134E: 38.5%
V43P: 0.987%
T1P: 27.2%
S117T: 3.4%
H16L: -4.69%
L94N: -4.38%
E151K: 30.8%
R111P: 20.5%
K168N: 62.4%
V145Q: -0.075%
V136D: 0.305%

Sample 6 — technique: RNA Bind-n-Seq; molecule type: RNA; medium: in vitro; concentration: not given; baseline: input RNA pool; direction: higher = stronger binding; endpoint: bound/input enrichment
Target: RING finger protein unkempt homolog, zinc fingers 1-6, GST-SBP tag (UNK, Homo sapiens, UniProt Q9C0B0, residues 30-357)
Chain of UniProt Q9C0B0 (30-357, looked up): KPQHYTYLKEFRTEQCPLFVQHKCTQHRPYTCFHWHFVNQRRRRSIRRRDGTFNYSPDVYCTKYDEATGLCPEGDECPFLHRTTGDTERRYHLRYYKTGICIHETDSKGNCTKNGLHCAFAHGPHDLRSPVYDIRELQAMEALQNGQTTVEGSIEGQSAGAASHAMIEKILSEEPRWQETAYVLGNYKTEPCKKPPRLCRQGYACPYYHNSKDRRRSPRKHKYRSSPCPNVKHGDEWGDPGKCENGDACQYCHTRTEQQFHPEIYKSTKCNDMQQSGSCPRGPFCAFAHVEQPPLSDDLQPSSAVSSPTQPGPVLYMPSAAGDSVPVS
Notes: RNA with constant flanks, human and mouse sites, ends assumed
Shared flanks, not repeated: GGGAGUUCUACAGUCCGACGAUC … CAACAGAGGAUUGAGCAUCA
AGAGUGCUGGGAUUAAAGCAGAUAUAAUUUCUACAGUAGAGUUUAAUCAUUCUGGAGAAUUACUAGCCACAGGAGAUAAAGGUGGGAGAGUUGUCAUCUUUCAACAAGAGCAGGAGAACA: 0.475 ratio
CUUUUUGCAGGACUUAUGGUUAAAGUGCCAGUGGGGCUGUAUUUUUCCUGUAAAUUACUUCUUUUCCAAAGCUUGAUGUUAAUGUCCCCGGAAGACAGCGCUUUUUAUGCGACCAUUGUC: 0.145 ratio
UAUUCACAACUUGGAACAUUUGCACCAAUGUGGGAUGUAUUCAAAACAUCUACAGAGAAAUUAGCAAAUUGUCAUUUGGAUCUUGUUAGAAAAUUACAGGAAUUAAUAAAGGAAGUUCAG: 2.7 ratio
GAAUUUGCCCAAGAUAAAUAUAUUAAAAAGAAGAAAAAAAAAUAUGAAGCCAUCAUUACUGUUGUGAAGCCAUCCACCCGUAUUCUUUCAAUUAUGUAUUAUGCAAGAGAACCUGGAAAA: 2.22 ratio
CCGAUGAACAGGAAAUCAAUGCCUGAGGCUGACUUCAGCUCCUGGACACCCUUAGAAUUCCUAGUUGAAACUUUCCAUGACUGGAUCACAGGGAAAAACCGACCGAGCUCAGGAAGCCUA: 0.208 ratio
AAAAAAUACAAAGAAAAAUAUAAAGUAAAAGACAGGAUAGAAGAAAAAACAAGAGAUGGAAAGGACAGAGGACGAGAUUUUGAACGACAAAGAGAAAAGAGAGACAAGCCAAGGUCUACU: 1.29 ratio
UGUGAACAGAAAAGAGGCAAAGAUAAUAAAGCUAUUAUUGCAUCAAAUAUCAUGUACAUAGUAGGUCAAUACCCACGUUUUUUGAGAGCUCACUGGAAAUUUCUGAAGACUGUAGUUAAC: 0.376 ratio
UUUCCAGAUCAAGGAUACAGAGGUCGAGGCCGAGGUGAAUAUUACUCCAGAGGUCGAAGCUAUAGAGGUUCUUAUGGAGGGCGUGGCAGGGGUGGUAGGGGACACACUCGAGAUUAUCCU: 0.482 ratio
GAAUCAAGGAUAUCAUUUGAGGAUGUGGCUGUAGACUUCUCCUGGGACCAGUGGCAGCUGCUUAGCCCUACUCAAAAGAGUUUAUACAGAGAUGUGAUGUUGGAGAACUGCAGCAGCCUU: 0.437 ratio
CAAGUACAUCUUGGUGUCAGUGAUGAUCUUGGGUUGCUUGCUCACAUGACUGCGAGUGUAGAGUUAACGUGCACAUCAAGCAUAAUGGAAGAGAAAGACUUCAGAAUUCAUACGACGUCA: 0.136 ratio
AGGUUUCCGGUUCCGGUGUAACGUUCGGGCUCCGUCUCAGGGGCUGAAGUUUGUGAGGUGUAGUUUUUUUGUCCCAUUGGAGCUCUCAUUCUCCAUUUUCUCCGAAAUGGCGCUGUCUAA: 0.452 ratio

Further values, each from its own experiment
PhoQ, residues 284 288 289 292 302 303 TAVSDG
fold induction (PhoP, residues 12 14 15 18 19 YHFSH (Escherichia coli, UniProt P23836); Sort-seq, item: YFP reporter; E. coli; PhoQ-PhoP variant library, with: 10 µM Mg2+; baseline: high Mg2+ state, higher = stronger signaling): 1.28

Some of these lines once more (further values, each from its own experiment):
PhoQ, residues 284 288 289 292 302 303 TAVSDG
fold induction (PhoP, residues 12 14 15 18 19 YHFSH (Escherichia coli, UniProt P23836); Sort-seq, item: YFP reporter; E. coli; PhoQ-PhoP variant library, with: 10 µM Mg2+; baseline: high Mg2+ state, higher = stronger signaling): 1.28
